Assay results gathered from unrelated publications.
Compare with care: the assays were run in different laboratories. Values joined by “and” are separate records of one study, mostly repeats; a detail may differ. ± marks the error that the study gave.

`Cc1cc(C)cc(NC(=O)CCN2CCCCCC2)c1` — result for “third-quartile larval motion”: 8.5 ± 2.3 pixels/frame (locomotor activity in dark; Danio rerio larvae, 7 dpf, well of 10 larvae; 10 µM, minute 3, dark).
With `COc1ccc(NC(=O)c2ccc3[nH]c(-c4ccc(N(C)C)cc4)nc3c2)cn1` the tumour volume was 42.2 mm3 and 237 mm3 and 224 mm3 and 246 mm3 and 197 mm3 (Lewis lung carcinoma, mice, syngeneic graft, subcutaneous; intraperitoneal, 50 mg/kg daily, day 7).
Under “time in open area”, `CC1Cc2ccccc2N1C(=O)CN1CCN(Cc2ccccc2)CC1` (centres unmarked) is recorded as “no effect” (zero maze; D4R-KO mice; dose not given; baseline: vehicle).
The normalised absorbance of `CCOC(=O)NN` is reported as 0.682 (hydrazine ligation kinetics, absorbance; concentration not given, 20 s, together with: 2-formylphenylboronic acid).
`C[C@@H]1O[C@@H](Oc2ccc(CC(N)=O)cc2)[C@H](O)[C@H](O)[C@H]1O` has a radical scavenging of 7.09 ± 0.76% (DPPH radical; 300 µg/mL).
The IC50 of `CCOC(=O)CCCCC1NCCc2cc(O)c(O)cc21` (centres unmarked) is reported as 19.6 µM (DPPH scavenging, absorbance; 30 min, dark).
Under “third-quartile larval motion”, `COc1ccc(N2CCN(CC(O)COc3ccc4ccccc4c3)CC2)cc1` (centres unmarked) is recorded as 4.8 ± 1.1 pixels/frame (locomotor activity in dark; Danio rerio larvae, 7 dpf, well of 10 larvae; 10 µM, minute 7, dark).
For `COc1cc(O)ccc1CCC(c1ccc(O)cc1)c1cc2c(c(C)c1O)OC(c1ccc(O)cc1)CC2` (mixture of isomers), the amount was 3760 ± 734 pg/mL blood (item: 15-HETE; human whole blood; 3 µM, together with: Escherichia coli).
`COc1cc2nc(N3CCN(C(=O)C4CC5(CCOCC5)CO4)CC3)nc(N)c2cc1OC` (centres unmarked) — result for “time to maximum BP lowering”: 60 min (blood pressure; spontaneously hypertensive rat, male; oral, 3 mg/kg).
With `CN1CCC[C@]1(C)/C=C/S(=O)(=O)NC(=O)Nc1c2c(cc3c1CCC3)CCC2` the IL-1β inhibition was 95.2% (human, whole blood ex vivo; 100 mg single dose, 24 h, single ascending dose, together with: LPS and ATP).
For `COc1ccccc1-c1ccncc1C(=O)Nc1nnc(OCc2ccc(Cl)cc2)s1`, the colony survival was 92% and 70% and 92.4% and 87.8% and 86.2% and 89.1% (Brca1 Δ11/Δ11 Polq-/- MEFs, mouse; 5 µM).
`CC(C)(C)NCC(SS(=O)(=O)O)c1ccccc1` (centres unmarked) gave a spleen weight of 0.68 g (Swiss Webster mice, Schistosoma mansoni-infected; 200 mg/kg single dose on day 42 post-infection, perfusion day 56 post-infection).
For `COC1CN([C@H]2CC[C@H]([C@@]3(C)Oc4c(Cl)cc(C(=O)NCc5c(SC)cc(C)[nH]c5=O)c(C)c4O3)CC2)C1`, “log2 fold change” read 1.26 (RNA-seq, item: NPL; human, whole blood; dose not given, 24 h; baseline: pretreatment baseline).
For `OC(COCC1COc2ccccc2O1)CN1CCN(c2ccccc2)CC1` (centres unmarked), “third-quartile larval motion” read 3.7 ± 1.2 pixels/frame (locomotor activity in dark; Danio rerio larvae, 7 dpf, well of 10 larvae; 10 µM, minute 5, dark).
`Cc1ccc(S(=O)(=O)NN)cc1` has a normalised absorbance of 0.896 (hydrazine ligation kinetics, absorbance; concentration not given, 50 s, together with: 2-formylphenylboronic acid).
For `CO[C@H]1CCN(Cc2c(C)cc(C)c3[nH]ccc23)[C@H](CO)C1`, the IC50 was 2.2 ± 1.1 µM (alternative pathway MAC formation, inhibitor; 50% human serum; together with: zymosan).
Under “Cohen's d effect size”, `CN(C)C(=O)c1ccnc(N2Cc3cn(Cc4ccc(F)cc4F)nc3C2)n1` is recorded as -0.16 (immunohistochemistry, item: NeuN neuron density; mouse cuprizone diet, corpus callosum; dose not given, unit not given; baseline: healthy control).
For `COCCNCCOc1cc(C)cc(C(C)C)c1`, “third-quartile larval motion” read 7 ± 0.7 pixels/frame (locomotor activity in dark; Danio rerio larvae, 7 dpf, well of 10 larvae; 10 µM, minute 7, dark).
`CCC(=O)N[C@@H](C)C(=O)OCC(=O)N[C@@H](C)C(=O)O`: “chain scission rate constant” 0.0025 h⁻¹ (water; pH 4, 50 °C).
The normalised absorbance of `NNC(=O)Cc1ccccc1` is reported as 0.692 (hydrazine ligation kinetics, absorbance; concentration not given, 35 s, together with: 2-formylphenylboronic acid).
Under “body weight loss”, `CC[C@H](C)[C@@H](C(=O)N[C@@H](CC(C)C)C(=O)N[C@@H](CO)C(=O)N[C@@H](CO)C(=O)N[C@H](C(=O)N[C@@H](CCC(=O)O)C(=O)N[C@H](C(=O)NCC(=O)N[C@@H](CO)C(=O)N[C@@H](CO)C(=O)N[C@H](C(=O)N1C[C@H](O)C[C@H]1C(N)=O)[C@@H](C)O)C(C)C)[C@@H](C)O)N(C)C(=O)[C@H](C)NC(=O)CN(C)C(=O)[C@H](Cc1ccccc1)NC(=O)[C@H](CO)NC(=O)[C@H](CO)NC(=O)[C@H](CCCNC(=N)N)NC(=O)[C@@H](NC(=O)[C@H](CC(C)C)NC(=O)[C@H](Cc1ccccc1)NC(=O)[C@H](Cc1c[nH]cn1)NC(=O)[C@H](C)NC(=O)[C@H](CC(C)C)NC(=O)[C@H](CCCNC(=N)N)NC(=O)[C@H](CCC(=O)O)NC(=O)[C@@H](NC(=O)[C@H](C)NC(=O)[C@@H]1CSSC[C@H](NC(=O)[C@H](CCCNC(=N)N)NC(=O)CC[C@H](NC(=O)CCCCCCCCCCCCCCCCCCC(=O)O)C(=O)O)C(=O)NCC(=O)N[C@@H]([C@@H](C)O)C(=O)N[C@@H](C)C(=O)N[C@@H]([C@@H](C)O)C(=O)N1)[C@@H](C)O)[C@@H](C)O` is recorded as 7 ± 0.5% (male Sprague-Dawley rats; subcutaneous, 30 nmol/kg single dose, 96 h).
The inhibition of `CC(=O)[O-].O.O.O.O.[Ni+2].[O-]c1ccc(Br)cc1C=NCCN1CCOCC1` is reported as 4.29% (superoxide scavenging; 40 µM).
For `CCCCCCCCCCCCCCCCCCCCCCCCCCCCOC(=O)/C=C/c1ccc(O)cc1`, the lipid accumulation was 99.7 ± 10.6% (Oil Red O; 3T3-L1, mouse; 5 µM, day 8; baseline: vehicle).
